# Results of several laboratories.
# ± marks the error that the study gave.
# Organism: SARS-CoV-2
Structure (SMILES),test,system,conditions,IC50
C(=N\Cc1cc(C/N=C/c2ccc[nH]2)cc(-c2cc(C/N=C/c3ccc[nH]3)cc(C/N=C/c3ccc[nH]3)c2)c1)/c1ccc[nH]1,"viral replication, plaque reduction neutralization",WA.1,,~20000 nM
CCN(CC)CCCC(C)Nc1c2cc(Cl)ccc2nc2ccc(OC)cc12 (stereo not drawn),viral replication,"U2OS, BetaCoV/France/IDF0372/2020",,410 nM
CC1(C)CC[C@]2(C(=O)O[C@@H]3OC[C@@H](O)[C@H](O[C@@H]4OC[C@@H](O)[C@H](O)[C@H]4O)[C@H]3O)CC[C@]3(C)C(=CC[C@@H]4[C@@]5(C)CC[C@H](O[C@@H]6O[C@H](CO)[C@@H](O)[C@H](O)[C@H]6O)C(C)(C)[C@@H]5CC[C@]43C)[C@@H]2C1,"pseudovirus cell entry, luciferase reporter",NCI-H1299 ACE2-expressing,24 h,7590 nM
COc1ccc2nc3cc(Cl)ccc3c(N3CCOCC3)c2c1,viral replication,"U2OS, BetaCoV/France/IDF0372/2020",,> 50000 nM
CC(=O)OC1CC2(C)C(=CCC3C4(C)CCC(O)C(C)(C)C4CCC32C)C2CC(C)(C)CCC12C(=O)OC1OCC(O)C(O)C1OC1OC(C)C(OC2OCC(O)C(OC3OCC(O)C(O)C3O)C2O)C(O)C1O (stereo not drawn),"pseudovirus cell entry, luciferase reporter",NCI-H1299 ACE2-expressing,24 h,> 10000 nM
CC(C)CC(=O)OC1C=CC=CC(=O)OC2C(C)CC3C2(O)C(O)C2(CO)OC2C2C4OC5(c6ccccc6)OC(C(C)C23O5)C4(O)C(C)(O)CC2CCC1C2C (stereo not drawn),viral replication,Vero E6,,1.7 nM
Oc1ccc(Nc2c3ccc(Cl)cc3nc3ccc(Cl)cc23)cc1CN1CCCC1,viral replication,"U2OS, BetaCoV/France/IDF0372/2020",,1370 nM
CCc1ccc(COP(=O)(O)Oc2c3c(c(OP(=O)(O)OCc4ccc(CC)cc4)c4c2C2CC4c4cc5c(cc42)C2CC5c4ccccc42)C2CC3c3cc4c(cc32)C2CC4c3ccccc32)cc1,spike pseudoparticle entry,Caco-2,,6900 nM
CC[C@H](C)[C@@H]1NC(=O)[C@H](CCC(N)=O)NC(=O)[C@H](CCC(=O)O)NC(=O)[C@H](CCCNC(=N)N)NC(=O)[C@@H]2CCCN2C(=O)[C@H](CCCNC(=N)N)NC(=O)[C@H](CCCNC(=N)N)NC(=O)[C@H](Cc2ccc(O)cc2)NC(=O)CSC[C@@H](C(=O)NCC(N)=O)NC(=O)[C@H](Cc2ccccc2)NC(=O)[C@H](C(C)C)NC(=O)[C@H](Cc2c[nH]c3ccccc23)NC(=O)[C@H](CC(C)C)NC(=O)[C@H](CO)NC(=O)CNC(=O)[C@H]([C@@H](C)CC)NC(=O)[C@H]([C@@H](C)CC)NC1=O,,"HEK293 ACE2 TMPRSS2, ancestral Wuhan",,5200 nM
Cc1cc(C)n(-c2nc(-c3ccccc3)cc(=O)n2CC(=O)Nc2cccc([N+](=O)[O-])c2)n1,pseudovirus entry,HEK293T,24 h,32200 nM
COc1ccc2nc3ccc(C(F)(F)F)cc3c(Nc3cc(CN4CCCC4)c(O)c(CN4CCCC4)c3)c2c1,viral replication,"U2OS, BetaCoV/France/IDF0372/2020",,440 nM
COc1cc2c(cc1O)CCN[C@]21CS[C@@H]2c3c(OC(C)=O)c(C)c4c(c3[C@H](COC1=O)N1[C@@H]2[C@H]2c3c(cc(C)c(OC)c3O)C[C@@H]([C@@H]1C#N)N2C)OCO4,"viral replication, RT-qPCR, refers to: viral RNA in supernatant","Calu-3, SA",,0.007 nM
COc1ccc2nc3ccc(F)cc3c(Nc3ccc(O)c(CN4CCCC4)c3)c2c1,viral replication,"U2OS, BetaCoV/France/IDF0372/2020",,1910 nM
Cc1ccc(N2CCN(C)CC2)cc1C(=O)NC1(c2ccc3c4c(cccc24)CC3)CC1,viral replication,"Vero C1008, XBB.1",,466 ± 35.1 nM
CCCCCCOP(=O)(O)Oc1c2c(c(OP(=O)(O)OCCCCCC)c3c1C1CC3c3cc4c(cc31)C1CC4c3ccccc31)C1CC2c2cc3c(cc21)C1CC3c2ccccc21,spike pseudoparticle entry,Caco-2,,1700 nM
COc1ccc2nc3ncccc3c(Nc3ccc(O)c(CN4CCCC4)c3)c2c1,viral replication,"U2OS, BetaCoV/France/IDF0372/2020",,1960 nM
CCCCCCCCOP(=O)(O)Oc1c2c(c(OP(=O)(O)OCCCCCCCC)c3c1C1CC3c3cc4c(cc31)C1CC4c3ccccc31)C1CC2c2cc3c(cc21)C1CC3c2ccccc21,spike pseudoparticle entry,Caco-2,,14900 nM
Cc1oc2nc1C(=O)N[C@](C)(C(=O)NCCc1ccc(N3CCCCC3)cc1)c1nc(c(C)o1)C(=O)N[C@](C)(C(=O)NCCc1ccc(N3CCCCC3)cc1)c1nc(c(C)o1)C(=O)N[C@]2(C)C(=O)NCCc1ccc(N2CCCCC2)cc1,viral replication,"Vero E6, NRC-03-nhCoV",72 h,61700 nM
CC1OC(OC2C(OC(=O)C34CCC(C)(C)CC3C3=CCC5C6(C)CCC(OC7OC(CO)C(O)C(O)C7O)C(C)(C)C6CCC5(C)C3(C)CC4)OCC(O)C2O)C(O)C(O)C1OC1OCC(O)C(OC2OCC(O)C(O)C2O)C1O (stereo not drawn),"pseudovirus cell entry, luciferase reporter",NCI-H1299 ACE2-expressing,24 h,1330 nM
O=C(O)CCOP(=O)(O)Oc1c2c(c(OP(=O)(O)OCCC(=O)O)c3c1C1CC3c3cc4c(cc31)C1CC4c3ccccc31)C1CC2c2cc3c(cc21)C1CC3c2ccccc21,spike pseudoparticle entry,Caco-2,,29600 nM
CC[C@H](C)[C@H](NC(=O)[C@H](C)NC(=O)[C@H](CCC(=O)O)NC(=O)[C@H](CCC(=O)O)NC(=O)[C@H](CC(C)C)NC(=O)[C@H](CCCCN)NC(=O)[C@H](CCCCN)NC(=O)[C@H](CCSC)NC(=O)[C@H](CCC(=O)O)NC(=O)[C@H](Cc1ccc(O)cc1)NC(=O)[C@H](CCC(=O)O)NC(=O)[C@H](CC(C)C)NC(=O)[C@H](CC(=O)O)NC(=O)[C@H](CC(C)C)NC(=O)[C@H](Cc1ccccc1)NC(=O)[C@@H](NC(=O)[C@@H](NC(=O)[C@@H](N)CC(N)=O)C(C)C)[C@@H](C)O)C(=O)N[C@@H](CCCCN)C(=O)N[C@@H](CCCCN)C(=O)N[C@@H](CC(C)C)C(=O)N[C@@H](CCC(=O)O)C(=O)N[C@@H](CCC(=O)O)C(=O)N[C@@H](CO)C(=O)N[C@@H](Cc1ccc(O)cc1)C(=O)N[C@H](C(=O)N[C@@H](CC(=O)O)C(=O)N[C@@H](CC(C)C)C(=O)N[C@@H](CCCCN)C(=O)N[C@@H](CCC(=O)O)C(=O)N[C@@H](CC(C)C)C(=O)NCC(=O)N[C@H](C(=O)N[C@@H](Cc1ccc(O)cc1)C(=O)N[C@@H](CCC(=O)O)C(=O)N[C@@H](Cc1ccc(O)cc1)C(N)=O)[C@@H](C)O)[C@@H](C)CC,viral replication,,,1410 nM
CC(C)CCOP(=O)(O)Oc1c2c(c(OP(=O)(O)OCCC(C)C)c3c1C1CC3c3cc4c(cc31)C1CC4c3ccccc31)C1CC2c2cc3c(cc21)C1CC3c2ccccc21,spike pseudoparticle entry,Caco-2,,2600 nM
CC[C@@]1(O)C[C@H](O[C@H]2C[C@H](N(C)C)[C@H](O[C@H]3C[C@H](O)[C@H](O[C@H]4CCC(=O)[C@H](C)O4)[C@H](C)O3)[C@H](C)O2)c2c(cc3c(c2O)C(=O)c2c(O)cccc2C3=O)[C@H]1C(=O)OC,"viral replication, RT-qPCR, refers to: viral RNA in supernatant","Calu-3, SA",,136 nM
O=P(O)(OCc1ccc(-c2ccccc2)cc1)Oc1c2c(c(OP(=O)(O)OCc3ccc(-c4ccccc4)cc3)c3c1C1CC3c3cc4c(cc31)C1CC4c3ccccc31)C1CC2c2cc3c(cc21)C1CC3c2ccccc21,spike pseudoparticle entry,Caco-2,,2900 nM
CCc1nc(C(N)=O)c(Nc2ccc(N3CCC(N4CCN(C)CC4)CC3)c(OC)c2)nc1NC1CCOCC1,viral replication,Huh-7,48 h,225 nM
O=P(O)(OCc1cccc2ccccc12)Oc1c2c(c(OP(=O)(O)OCc3cccc4ccccc34)c3c1C1CC3c3cc4c(cc31)C1CC4c3ccccc31)C1CC2c2cc3c(cc21)C1CC3c2ccccc21,spike pseudoparticle entry,Caco-2,,2400 nM
CC1OC(OC2C(OC(=O)C34CCC(C)(C)CC3C3=CCC5C6(C)CCC(OC7OC(CO)C(O)C(O)C7O)C(C)(C)C6CCC5(C)C3(C)CC4O)OCC(O)C2O)C(O)C(O)C1OC1OCC(O)C(OC2OCC(O)C(OC3OCC(O)C(O)C3O)C2O)C1O (stereo not drawn),viral infection,"Vero, ancestral",24 h,1420 nM
Cc1cn2nc([C@@H]3CCCCN3C(=O)c3cc(Cl)ccc3NS(C)(=O)=O)cc2nc1N1CC[C@H](N)C1,viral replication,Vero E6,,6740 nM
C#CCCOP(=O)(O)Oc1c2c(c(OP(=O)(O)OCCC#C)c3c1C1CC3c3cc4c(cc31)C1CC4c3ccccc31)C1CC2c2cc3c(cc21)C1CC3c2ccccc21,pseudoparticle entry,Caco-2,,11300 nM
CC1OC(OC2C(OC(=O)C34CCC(C)(C)CC3C3=CCC5C6(C)CCC(OC7OC(CO)C(O)C(O)C7O)C(C)(C)C6CCC5(C)C3(C)CC4O)OCC(O)C2O)C(O)C(O)C1OC1OCC(O)C(OC2OCC(O)C(O)C2O)C1O (stereo not drawn),viral infection,"Vero, ancestral",24 h,1040 nM

# Some of these lines once more:
Structure (SMILES),test,system,conditions,IC50
Cc1cn2nc([C@@H]3CCCCN3C(=O)c3cc(Cl)ccc3NS(C)(=O)=O)cc2nc1N1CC[C@H](N)C1,viral replication,Vero E6,,6740 nM
C#CCCOP(=O)(O)Oc1c2c(c(OP(=O)(O)OCCC#C)c3c1C1CC3c3cc4c(cc31)C1CC4c3ccccc31)C1CC2c2cc3c(cc21)C1CC3c2ccccc21,pseudoparticle entry,Caco-2,,11300 nM
